Experimental data from different studies.
Compare with care: the assays were run in different laboratories. Several values in a cell are separate wells, animals, samples, runs or records.
KIT: Mast/stem cell growth factor receptor Kit (KIT, Homo sapiens, UniProt P10721)
KIT D816V: Mast/stem cell growth factor receptor Kit (KIT, Homo sapiens, UniProt P10721, D816V)
KIT T670I/V559D: Mast/stem cell growth factor receptor Kit (KIT, Homo sapiens, UniProt P10721, T670I/V559D)
KIT D816H: Mast/stem cell growth factor receptor Kit (KIT, Homo sapiens, UniProt P10721, D816H)

Compound = O=C(Nc1ccc(Oc2ncnc3[nH]cc(-c4ccccc4)c23)c(F)c1)c1c2n(n(-c3cc(F)ccc3F)c1=O)CCCC2; target = KIT; test = enzyme activity, inhibitor; setting = 0.5 µM; endpoint = inhibition; value = 12%
Compound = Cc1nc2c(F)cc(-c3nc(Nc4ccc(CNC(=O)CCCCCCC(=O)NO)cc4)ncc3F)cc2n1C(C)C; target = KIT; test = enzyme activity, inhibitor; setting = 1 µM; endpoint = inhibition; value = 72%
Compound = C=CC(=O)N1CCCC(n2c(=O)c3ncccc3n(Cc3ccc(Oc4ccccc4)cc3)c2=O)C1 (stereo not drawn); target = KIT D816V; test = cell-free assay, competition with immobilised ligand; setting = 1 µM; endpoint = remaining binding; value = 96%
Compound = COC(=O)[C@@]1(C)C=C(C(=O)Nc2cccc(C(=O)Nc3ccc(Nc4nccc(-c5cccnc5)n4)c(C)c3)c2)C(=O)CC1; target = KIT; test = enzyme activity, inhibitor, radiometric; setting = 1 µM; endpoint = remaining activity; value = 69%
Compound = Cc1cnc2nc1Nc1cccc(c1)COC/C=C/COCc1cc(ccc1OCCN1CCOCC1)N2; target = KIT T670I/V559D; test = binding; setting = 0.1 µM; endpoint = remaining binding; value = 99%
Compound = COCC12C(=O)NC3C4(C(OC)CC1O)C1CC5(O)C(OC)C(O)C(OC(C)=O)(C1C5OC(=O)c1ccccc1)C3(O)C(OC)C24 (stereo not drawn); target = KIT (Homo sapiens, UniProt P10721, T670I); test = kinase activity, inhibitor, ProQinase kinase profiling; setting = 25 µM; scale = relative to: control; endpoint = remaining activity; value = 103% and 95%
Compound = C=C1CCCCCCCCCC(CO)C1=O (stereo not drawn); target = KIT T670I/V559D; test = cell-free assay; setting = 10 µM; endpoint = remaining signal; value = 94%
Compound = COc1ccc(C(=O)/C=C/c2ccccc2-c2c[nH]c3ccc(C#N)cc23)c(O)c1; target = KIT; test = enzyme activity, inhibitor; setting = 20 µM; endpoint = inhibition; value = 4%
Compound = CNC(=O)C1CCN(c2cc(C)c(F)cc2NC(=O)c2ccc(-c3cc(O)ccc3C)c(C)c2)CC1; target = KIT (Homo sapiens, UniProt P10721, V559D); test = binding, competition with immobilised ligand; setting = 1 µM; endpoint = remaining binding; value = 70%
Compound = CCN1CCN(Cc2ccc(C(=O)Nc3ccc(C)c(NCc4cnc5[nH]ccc5c4OC)c3)cc2C(F)(F)F)CC1; target = KIT D816H; test = binding, competition with immobilised ligand; setting = 1 µM; endpoint = remaining binding; value = 18%
Compound = CNC1C[S+]2CC[S+]3CC[S+](C1)[Ru-4]321([N]=C=S)[n]2c3ccc(OC)cc3c3c4c(c5cc(F)c[n+]1c5c32)C(=O)NC4=O (stereo not drawn); target = KIT D816V; test = KinomeScan; setting = 0.1 µM; scale = relative to: untreated; endpoint = remaining binding; value = 14%
Compound = CC(C)=CC1OC(C)(C)C2C=C3C(=O)C(Cl)=CC(O)C3C3C(O)C4OC4C(=O)C132 (stereo not drawn); target = KIT (Homo sapiens, UniProt P10721, A829P); test = cell-free assay, competition with immobilised ligand; setting = 10 µM; endpoint = remaining binding; value = 87%
Compound = NC(=O)C[C@H]1CCc2sc3ncnc(O[C@H]4CC[C@H](N5CCOCC5)CC4)c3c21; target = KIT; test = enzyme activity, inhibitor; setting = 10 µM; endpoint = inhibition; value = 6%
Compound = COc1cc(OC)c(F)c(/C=C/c2cnc3ccn(S(=O)(=O)c4cn(CCF)cn4)c3n2)c1F; target = KIT; setting = 10 nM; endpoint = inhibition; value = 0%
Compound = COc1c(Cl)cccc1Nc1c(-c2ccncc2C#C[C@@]2(C)CCCN2C(=O)/C=C/CN(C)C)[nH]c2c1C(=O)NCC2; target = KIT T670I/V559D; test = binding, competition with immobilised ligand; setting = 3 µM; endpoint = remaining binding; value = 87%
Compound = C=CC(=O)N1Cc2nc(-c3cc(-c4cc(Cl)cnc4Cl)c(F)cc3F)n(-c3ccncn3)c2C1; target = KIT; test = cell-free assay, inhibitor; setting = 1 µM; endpoint = inhibition; value = 9.8%
Compound = C=CC(=O)N1CCc2ccc(-n3c(=O)ccc4cnc5ccc(-c6cnn(C)c6)cc5c43)cc21; target = KIT T670I/V559D; test = KINOMEscan; setting = 1 µM; scale = relative to: DMSO control; endpoint = remaining binding; value = 84%
Compound = Cc1cccc(O[C@H]2CCC[C@@H](C(C)CNCc3ccncc3)C2)c1 (relative stereo); target = KIT; test = enzyme activity, inhibitor; setting = 10 µM; endpoint = inhibition; value = -4%
Compound = Nc1ncc2c(n1)-c1c([nH]c3ccc(C4=CCOCC4)cc13)CCC2; target = KIT T670I/V559D; test = binding, competition with immobilised ligand; setting = 1 µM; endpoint = remaining binding; value = 100%
Compound = C=CC(=O)Nc1cccc(-c2cnc3[nH]cc(C(=O)NC(C)(C)C)c3n2)c1; target = KIT; test = kinase activity; setting = 0.1 µM; endpoint = inhibition; value = -7% and -6%
Compound = CN1CCN(Cc2ccc(-c3ccc(CO[C@H]4CCC[C@@H]4NC(=O)c4cc(-c5cnn(C)c5)cnc4N)cc3)cc2)CC1; target = KIT; test = enzyme activity, inhibitor; setting = 0.1 µM; endpoint = inhibition; value = -13%
Compound = Nc1ncc(-c2cc(-c3cnn(CC(F)(F)F)c3)ncc2F)nc1C(=O)NC1CNCC(F)C1 (stereo not drawn); target = KIT; test = enzyme activity; setting = 1 µM; scale = relative to: DMSO control; endpoint = remaining activity; value = 98.2%
Compound = O=C=[N][Ru-4]123([n]4c5ccc(O)cc5c5c6c(c7cc(F)c[n+]1c7c54)C(=O)NC6=O)[S+]1CC[S+]2CC[S+]3CC1 (stereo not drawn); target = KIT D816H; test = enzyme activity; setting = 100 nM, human enzyme, added: 10 µM ATP; scale = relative to: untreated; endpoint = remaining activity; value = 54%
Compound = O=C(Cc1ccc(OCc2ccccc2)cc1)NC1(C(=O)O)CCN(C(=O)c2ccc(-c3cccc(Cl)c3)cc2)CC1; target = KIT; test = enzyme activity, inhibitor; setting = 10 µM; endpoint = activity vs control; value = 105%
